Results of several laboratories.
Compare with care: the assays were run in different laboratories. Several values in a cell are separate wells, animals, samples, runs or records. Numbers after ± are the reported error.

For COC(=O)N[C@@H](C)CNc1nccc(-c2cn(C(C)C)nc2-c2cc(Cl)cc(NS(C)(=O)=O)c2F)n1, the Cmax median was 5950 ng/mL (humans, plasma; oral, dose not given, day 1, single dose, added: binimetinib).
With CO[C@]1(C(=O)N[C@@H](C)c2ccc(-n3cc(F)cn3)nc2)CC[C@H](c2nc(C)cc(Nc3cc(C)[nH]n3)n2)CC1 the Cmax increase was roughly 84% (healthy human volunteers, plasma; oral, dose not given, added: itraconazole; baseline: compound alone).
The Cmax increase of COC(=O)N[C@@H](C)CNc1nccc(-c2cn(C(C)C)nc2-c2cc(Cl)cc(NS(C)(=O)=O)c2F)n1 is reported as 68.4% and ~68% (human, plasma; oral, 50 mg, single dose, geometric mean, added: posaconazole; baseline: compound alone).
With CC(C)n1c(Nc2cccnc2)nc2cnc(Nc3ccc(N4CCN(C)CC4)cc3)nc21 the Cmax increase was roughly 41% (LC-MS/MS; human, male, plasma; oral, dose not given, added: itraconazole; baseline: compound alone).
For COC(=O)N[C@H](C(=O)N1CCC[C@H]1c1ncc(-c2cc(F)c3c(c2)O[C@@H](c2cnc(C4CC4)s2)n2c-3cc3cc(-c4cnc([C@@H]5CCCN5C(=O)[C@@H](NC(=O)OC)C(C)C)[nH]4)ccc32)[nH]1)C(C)C, the Cmax increase was 53% (healthy adult humans; oral, dose not given; baseline: moderate-fat meal over fasted).
N#Cc1ccc(C(c2ccc(C#N)cc2)n2cncn2)cc1 — result for “Cmax at steady state”: 150 ng/mL (human; 125 mg).
For Cc1cc(Nc2ncnc3ccc(NC4=NC(C)(CO)CO4)cc23)ccc1Oc1ccn2ncnc2c1 (stereo not shown), “Cmax (geometric mean)” read 88.5 ng/mL (human, plasma; tucatinib, day 10, added: rifampin once daily).
With O=C(O)C[C@H](O)C[C@H](O)/C=C/c1c(C2CC2)nc2ccccc2c1-c1ccc(F)cc1 the Cmax increase was 2.66 fold (OATP1B1/1B3 humanised mice, plasma; oral, dose not given, added: silymarin 500 mg/kg; baseline: vehicle).
Under “Cmax steady state”, COc1cc(C(=O)NC2CCN(C)CC2)c(F)cc1Nc1ncc(C(F)(F)F)c(Oc2cccc3c2C(=O)N(C)C3)n1 is recorded as 2.56 µM (human, Taiwanese, plasma; oral, 200 mg once daily multiple dose, geometric mean).
CC(C)c1nc(N(C)S(C)(=O)=O)nc(-c2ccc(F)cc2)c1/C=C/[C@@H](O)C[C@@H](O)CC(=O)O gave a Cmax decrease of 39% (human; oral, dose not given, added: omaveloxolone; baseline: substrate alone).
The Cmax decrease of N[C@@H]1c2cccnc2[C@H](OC(=O)N2CCC(n3c(=O)[nH]c4ncccc43)CC2)CC[C@H]1c1cccc(F)c1F is reported as 64% (human, plasma; oral, 75 mg single dose, added: rifampin; baseline: compound alone).
Under “Cmax at steady state”, O=C(c1cccnc1-c1ccncc1)N1CCC(O)(Cc2ccccc2)CC1 is recorded as 2020 ng/mL (human, mild hepatic impairment, plasma; oral, 300 mg).
For Cl.[2H]C([2H])([2H])CC(=O)c1cnc(NC(=O)C2CC2)cc1Nc1cccc(-c2ncn(C([2H])([2H])[2H])n2)c1OC, the Cmax reduction was roughly 50% (human, plasma; oral, 25 mg, fed, single dose, liquid formulation; baseline: fasted).
Under “Cmax at steady state”, CC(C)(C#N)c1cc(Cn2cncn2)cc(C(C)(C)C#N)c1 is recorded as 53.7 ng/mL (human; 125 mg).
With COc1ccc2nc([S@@+]([O-])Cc3ncc(CO)c(OC)c3C)[nH]c2c1 the Cmax ratio was 9.8 fold (human; control session; baseline: (R)-OH-omeprazole over compound).
For CC(C)=CCC/C(C)=C/CC/C(C)=C/CC[C@@](C)(O)CCC1=C(C)C(=O)C(C)=C(C)C1=O, “Cmax geometric mean” read 3430 ng/mL (healthy human, plasma; oral, 400 mg, added: itraconazole 200 mg).
COc1cc(C(=O)NC2CCN(C)CC2)c(F)cc1Nc1ncc(C(F)(F)F)c(Oc2cccc3c2C(=O)N(C)C3)n1: “Cmax at steady state, dose-normalised” 12.9 (human patients, plasma; oral, 200 mg once daily, repeated, cycle 1 day 28, geometric mean).
N[C@@H](CC(=O)N1CCn2c(nnc2C(F)(F)F)C1)Cc1cc(F)c(F)cc1F: “Cmax divided by body mass index” 23.2 ± 7.1 ng/mL (human, female, plasma; oral, 100 mg single dose).
For CCCS(=O)(=O)N[C@H]1C[C@@H](N(C)c2ncnc3[nH]ccc23)C1, “Cmax geometric mean” read 520 ng/mL (healthy human, plasma; oral, 100 mg).
Under “Cmax at steady state”, OC[C@H]1O[C@@H](c2ccc(Cl)c(Cc3ccc(O[C@H]4CCOC4)cc3)c2)[C@H](O)[C@@H](O)[C@@H]1O is recorded as 475 ± 116 ng/mL (healthy humans, plasma; oral, 25 mg once daily, 5 days, alone).
CC1(C)CC[C@]2(NC(=O)C(C)(F)F)CC[C@]3(C)[C@H](C(=O)C=C4[C@@]5(C)C=C(C#N)C(=O)C(C)(C)[C@@H]5CC[C@]43C)[C@@H]2C1 — result for “Cmax fold increase”: roughly 3 fold (human, plasma; oral, dose not given, added: itraconazole; baseline: without itraconazole).
The Cmax decrease of C#C[C@]1(CO)O[C@@H](n2cnc3c(N)nc(F)nc32)C[C@@H]1O is reported as roughly 50% (human, plasma; oral, 30 mg, added: high-fat meal; baseline: fasted).
Under “Cmax fold increase”, Cc1cc(C)c(CNC(=O)c2cc(Cl)c3c(c2C)O[C@@](C)([C@H]2CC[C@H](N(C)C)CC2)O3)c(=O)[nH]1 is recorded as ~1.6 fold and 1.6 fold (human, male; oral, dose not given, added: fluconazole; baseline: compound alone).
The Cmax increase of Cc1cc(Nc2ncc(Cl)c(Nc3ccccc3S(=O)(=O)C(C)C)n2)c(OC(C)C)cc1C1CCNCC1 is reported as 66% (human, plasma; oral, 450 to 600 mg, cycle 2 day 1).
C=CC(=O)N1CCC[C@@H](n2c(=O)n(-c3ccc(Oc4ccccc4)cc3)c3c(N)nccc32)C1: “Cmax fed/fasted ratio” 0.71 (human; oral, 120 mg; baseline: fed over fasted).
NC[C@@]1(CC(=O)O)[C@@H]2CC[C@H]3C[C@@H]2[C@@H]1C3 gave a Cmax increase of 21.6% (human, severe renal impairment, plasma; dose not given; baseline: normal renal function).
For C=CC(=O)NC1CCN(c2ncc3ncnc(Nc4ccc(Oc5ccc6c(c5)ncn6C)c(C)c4)c3n2)CC1, the Cmax increase was roughly 26% (human, male, plasma; oral, 240 mg, fed; baseline: fasted).
CC(C)(C(=O)N1CCOc2c(C#N)cncc2C1)C(F)F: “Cmax dose proportionality ratio” 2.08 (healthy humans, both sexes, plasma; oral, 20 mg single dose, 2-fold dose increase; baseline: 20 mg over 10 mg).
The Cmax reduction of Cc1nc(-c2ccc(OCC(C)C)c(C#N)c2)sc1C(=O)O is reported as ~35% and 35% (human, plasma; oral, 40 mg, added: high-fat meal; baseline: fasting).
Under “Cmax at steady state”, N#Cc1ccc2c(c1)[C@H]1CCCN(C(=O)c3ccc4[nH]cnc4c3)[C@H]1C2 is recorded as 14.7 µM (human, plasma; oral, 240 mg once daily).
CCCn1cc(C)c2c(=O)[nH]c(-c3cc(S(=O)(=O)N4CCN(CC)CC4)ccc3OCC)nc21 gave a Cmax increase of 74.5% (human, plasma; dose not given, added: alcohol; baseline: drug alone).

For quick reference, copied from above:
CC1(C)CC[C@]2(NC(=O)C(C)(F)F)CC[C@]3(C)[C@H](C(=O)C=C4[C@@]5(C)C=C(C#N)C(=O)C(C)(C)[C@@H]5CC[C@]43C)[C@@H]2C1 — result for “Cmax fold increase”: roughly 3 fold (human, plasma; oral, dose not given, added: itraconazole; baseline: without itraconazole).
The Cmax decrease of C#C[C@]1(CO)O[C@@H](n2cnc3c(N)nc(F)nc32)C[C@@H]1O is reported as roughly 50% (human, plasma; oral, 30 mg, added: high-fat meal; baseline: fasted).
Under “Cmax fold increase”, Cc1cc(C)c(CNC(=O)c2cc(Cl)c3c(c2C)O[C@@](C)([C@H]2CC[C@H](N(C)C)CC2)O3)c(=O)[nH]1 is recorded as ~1.6 fold and 1.6 fold (human, male; oral, dose not given, added: fluconazole; baseline: compound alone).
The Cmax increase of Cc1cc(Nc2ncc(Cl)c(Nc3ccccc3S(=O)(=O)C(C)C)n2)c(OC(C)C)cc1C1CCNCC1 is reported as 66% (human, plasma; oral, 450 to 600 mg, cycle 2 day 1).
